Published values of several laboratories.
Numbered parts are unrelated; each lists some results of a single study.
UniProt Q86Z02, sequence (whole entry, looked up): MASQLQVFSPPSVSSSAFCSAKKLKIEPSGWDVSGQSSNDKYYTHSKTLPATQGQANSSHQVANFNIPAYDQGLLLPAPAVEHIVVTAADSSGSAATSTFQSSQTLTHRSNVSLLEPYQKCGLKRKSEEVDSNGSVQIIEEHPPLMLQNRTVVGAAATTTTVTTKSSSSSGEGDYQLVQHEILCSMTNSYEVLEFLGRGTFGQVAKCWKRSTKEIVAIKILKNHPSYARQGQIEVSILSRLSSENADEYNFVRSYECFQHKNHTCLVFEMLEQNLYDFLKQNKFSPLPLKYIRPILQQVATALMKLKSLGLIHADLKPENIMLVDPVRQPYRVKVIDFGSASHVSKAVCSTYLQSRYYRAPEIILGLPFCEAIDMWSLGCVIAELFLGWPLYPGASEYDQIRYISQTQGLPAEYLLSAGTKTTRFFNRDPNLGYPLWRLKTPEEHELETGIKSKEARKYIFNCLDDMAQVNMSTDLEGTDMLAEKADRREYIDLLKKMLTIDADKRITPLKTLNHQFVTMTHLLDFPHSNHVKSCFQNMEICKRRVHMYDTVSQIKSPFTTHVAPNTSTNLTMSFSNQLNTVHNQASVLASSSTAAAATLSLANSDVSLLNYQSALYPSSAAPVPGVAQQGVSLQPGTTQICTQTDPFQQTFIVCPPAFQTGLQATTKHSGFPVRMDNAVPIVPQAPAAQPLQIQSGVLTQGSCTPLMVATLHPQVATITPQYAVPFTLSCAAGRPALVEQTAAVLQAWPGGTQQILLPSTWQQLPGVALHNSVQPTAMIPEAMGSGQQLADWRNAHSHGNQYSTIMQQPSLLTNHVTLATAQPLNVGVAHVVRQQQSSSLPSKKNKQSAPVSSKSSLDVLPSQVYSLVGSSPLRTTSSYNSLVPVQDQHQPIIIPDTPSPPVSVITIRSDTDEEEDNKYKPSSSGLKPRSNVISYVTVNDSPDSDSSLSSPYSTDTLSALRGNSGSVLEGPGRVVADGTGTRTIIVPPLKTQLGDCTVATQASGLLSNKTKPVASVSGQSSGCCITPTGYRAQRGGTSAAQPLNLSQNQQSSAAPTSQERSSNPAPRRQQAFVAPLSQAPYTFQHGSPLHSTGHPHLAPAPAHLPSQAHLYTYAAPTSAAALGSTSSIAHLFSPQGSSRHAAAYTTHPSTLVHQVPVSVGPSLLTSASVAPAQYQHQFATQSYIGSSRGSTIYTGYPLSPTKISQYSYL
UniProt Q8N4C8, sequence (whole entry, looked up): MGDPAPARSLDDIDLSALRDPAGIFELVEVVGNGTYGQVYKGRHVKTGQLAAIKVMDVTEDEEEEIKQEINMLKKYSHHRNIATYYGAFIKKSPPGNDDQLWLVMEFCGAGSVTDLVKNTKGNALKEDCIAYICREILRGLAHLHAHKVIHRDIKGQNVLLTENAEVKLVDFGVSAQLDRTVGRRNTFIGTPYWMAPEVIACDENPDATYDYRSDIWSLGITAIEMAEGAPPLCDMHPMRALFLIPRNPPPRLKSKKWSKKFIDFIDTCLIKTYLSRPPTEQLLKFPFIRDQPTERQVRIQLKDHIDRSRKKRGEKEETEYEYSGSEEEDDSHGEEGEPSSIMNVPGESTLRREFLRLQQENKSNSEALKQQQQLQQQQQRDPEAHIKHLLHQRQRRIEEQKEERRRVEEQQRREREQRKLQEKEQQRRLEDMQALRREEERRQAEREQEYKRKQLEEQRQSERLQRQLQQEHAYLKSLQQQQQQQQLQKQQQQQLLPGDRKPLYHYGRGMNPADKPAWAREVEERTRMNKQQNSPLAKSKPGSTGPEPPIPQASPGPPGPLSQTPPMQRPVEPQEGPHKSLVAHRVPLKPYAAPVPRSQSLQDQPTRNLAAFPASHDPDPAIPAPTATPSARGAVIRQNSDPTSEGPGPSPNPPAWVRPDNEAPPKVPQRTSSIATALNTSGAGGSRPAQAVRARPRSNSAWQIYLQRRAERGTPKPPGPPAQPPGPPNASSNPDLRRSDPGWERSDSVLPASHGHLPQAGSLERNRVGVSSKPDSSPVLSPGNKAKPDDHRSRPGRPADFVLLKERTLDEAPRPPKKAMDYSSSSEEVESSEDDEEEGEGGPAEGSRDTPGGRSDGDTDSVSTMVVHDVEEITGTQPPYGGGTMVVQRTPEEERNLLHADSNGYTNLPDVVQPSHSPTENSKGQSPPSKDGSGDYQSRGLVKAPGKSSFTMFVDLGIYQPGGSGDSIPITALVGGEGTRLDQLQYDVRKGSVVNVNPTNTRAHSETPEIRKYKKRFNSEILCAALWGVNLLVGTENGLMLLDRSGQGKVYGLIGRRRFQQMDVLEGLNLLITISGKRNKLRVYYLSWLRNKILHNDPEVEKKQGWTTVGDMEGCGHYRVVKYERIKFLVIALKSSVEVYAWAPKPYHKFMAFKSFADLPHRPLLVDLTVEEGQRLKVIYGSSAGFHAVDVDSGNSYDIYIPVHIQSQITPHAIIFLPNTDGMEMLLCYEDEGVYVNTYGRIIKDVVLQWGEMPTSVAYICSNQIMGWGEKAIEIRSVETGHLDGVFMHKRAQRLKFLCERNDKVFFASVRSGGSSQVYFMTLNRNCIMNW
UniProt Q13464, sequence (whole entry, looked up): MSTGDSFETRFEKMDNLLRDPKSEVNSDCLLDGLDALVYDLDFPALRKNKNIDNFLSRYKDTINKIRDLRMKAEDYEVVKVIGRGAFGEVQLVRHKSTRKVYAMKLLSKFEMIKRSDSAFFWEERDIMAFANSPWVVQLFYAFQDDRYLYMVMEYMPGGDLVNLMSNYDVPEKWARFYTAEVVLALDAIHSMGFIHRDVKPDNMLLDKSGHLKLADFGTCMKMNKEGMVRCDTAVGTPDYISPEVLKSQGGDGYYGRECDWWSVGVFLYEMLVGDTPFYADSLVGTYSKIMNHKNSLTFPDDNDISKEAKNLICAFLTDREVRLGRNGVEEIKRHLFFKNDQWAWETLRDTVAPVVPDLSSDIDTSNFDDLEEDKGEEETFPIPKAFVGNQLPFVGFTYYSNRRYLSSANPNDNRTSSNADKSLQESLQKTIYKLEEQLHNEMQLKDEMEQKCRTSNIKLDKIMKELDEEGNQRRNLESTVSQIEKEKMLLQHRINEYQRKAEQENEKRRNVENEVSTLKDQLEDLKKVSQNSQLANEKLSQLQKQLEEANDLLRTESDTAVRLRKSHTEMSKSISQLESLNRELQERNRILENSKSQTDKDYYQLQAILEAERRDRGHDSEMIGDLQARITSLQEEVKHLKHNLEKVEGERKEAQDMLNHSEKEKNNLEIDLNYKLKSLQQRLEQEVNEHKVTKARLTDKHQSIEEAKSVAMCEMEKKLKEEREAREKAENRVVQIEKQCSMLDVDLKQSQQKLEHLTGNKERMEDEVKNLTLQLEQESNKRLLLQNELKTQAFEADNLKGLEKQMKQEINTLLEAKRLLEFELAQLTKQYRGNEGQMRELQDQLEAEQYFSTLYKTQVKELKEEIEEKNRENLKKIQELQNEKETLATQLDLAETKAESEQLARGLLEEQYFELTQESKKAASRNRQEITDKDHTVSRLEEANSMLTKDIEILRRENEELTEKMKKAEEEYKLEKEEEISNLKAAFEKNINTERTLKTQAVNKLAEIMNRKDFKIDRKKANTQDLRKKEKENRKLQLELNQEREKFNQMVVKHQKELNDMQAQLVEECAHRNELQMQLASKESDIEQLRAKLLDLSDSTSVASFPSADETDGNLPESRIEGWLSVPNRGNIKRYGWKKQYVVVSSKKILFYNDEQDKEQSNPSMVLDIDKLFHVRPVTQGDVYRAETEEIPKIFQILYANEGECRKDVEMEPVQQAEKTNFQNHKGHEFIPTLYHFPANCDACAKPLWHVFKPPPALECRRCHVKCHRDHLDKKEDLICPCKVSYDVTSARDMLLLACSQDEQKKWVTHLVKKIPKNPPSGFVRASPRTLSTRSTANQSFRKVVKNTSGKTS
UniProt Q9H4B4, sequence (whole entry, looked up): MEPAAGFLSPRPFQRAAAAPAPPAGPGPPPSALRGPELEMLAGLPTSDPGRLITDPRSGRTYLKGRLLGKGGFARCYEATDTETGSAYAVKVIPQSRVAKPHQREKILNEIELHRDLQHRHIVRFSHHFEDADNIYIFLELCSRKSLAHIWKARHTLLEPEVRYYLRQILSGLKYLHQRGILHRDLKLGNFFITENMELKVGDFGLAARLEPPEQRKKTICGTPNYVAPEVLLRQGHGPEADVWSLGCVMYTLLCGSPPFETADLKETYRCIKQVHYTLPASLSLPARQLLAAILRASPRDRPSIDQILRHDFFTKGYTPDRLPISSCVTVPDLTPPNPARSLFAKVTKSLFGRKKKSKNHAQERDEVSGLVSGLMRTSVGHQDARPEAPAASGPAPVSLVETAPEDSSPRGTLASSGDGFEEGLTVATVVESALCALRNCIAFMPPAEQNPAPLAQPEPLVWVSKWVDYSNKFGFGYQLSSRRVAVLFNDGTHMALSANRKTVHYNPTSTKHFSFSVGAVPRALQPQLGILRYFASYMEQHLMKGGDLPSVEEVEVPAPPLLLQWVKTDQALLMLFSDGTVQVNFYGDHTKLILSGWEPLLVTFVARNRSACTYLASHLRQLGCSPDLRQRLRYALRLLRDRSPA

Series 1 — target: Sox-I, HMG box (Salpingoeca helianthica); technique: Spec-seq; molecule type: double-stranded DNA, one strand shown; medium: in vitro; concentration: not given; setting: whole probe, mean of replicates; relative to: not given; direction: lower = stronger binding; all sequences stand within: GAGTCGTCTCGTCAGCAC … CCGTAGAGCACTCAGGTC
Residues (chain): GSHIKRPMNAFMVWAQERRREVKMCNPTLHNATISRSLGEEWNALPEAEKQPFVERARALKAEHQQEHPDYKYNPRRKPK
Under “relative binding energy”, `ATTAGTT` is recorded as -0.0878 ln ratio.
`CAGTGTT` — result for “relative binding energy”: 0.169 ln ratio.
`CATACTT`: “relative binding energy” 0.203 ln ratio.
For `CATCGGC`, “relative binding energy” read 1.14 ln ratio.
`CATACGA`: “relative binding energy” 0.696 ln ratio.
`GCTAGTT` — result for “relative binding energy”: 0.213 ln ratio.
For `CATCCCA`, “relative binding energy” read 0.63 ln ratio.
`ATGAGTT`: “relative binding energy” 0.212 ln ratio.

Series 2 — Structure (SMILES): c1ccc(N2CCN(Cc3nc4ccccc4[nH]3)CC2)nc1; technique: competition with immobilised ligand; concentration: 1 µM
HIPK1 (Homo sapiens, UniProt Q86Z02); binding — remaining binding: 99%.
The remaining binding was 100% (OXSR1 (Homo sapiens, UniProt O95747); binding).
The remaining binding was 100% (FLT4 (Homo sapiens, UniProt P35916); cell-free assay).
The remaining binding was 100% (RET (Homo sapiens, UniProt P07949, V804M); cell-free assay).

Series 3 — effect on: enzyme activity; action: inhibitor; concentration: 0.5 µM; relative to: control
SMILES: Cc1nc(Nc2ncc(C(=O)Nc3c(C)cccc3Cl)s2)cc(N2CCN(CCO)CC2)n1
For PNCK (Homo sapiens, UniProt Q6P2M8): remaining activity read 102%.
It gave 94.1% for remaining activity (AKT2 (Homo sapiens, UniProt P31751)).
For Cyclin-dependent kinase 9, with cyclin K (CDK9, Homo sapiens, UniProt P50750): remaining activity read 104%.
It gave 93.3% for remaining activity (MAPK1 (Homo sapiens, UniProt P28482)).
MINK1 (Homo sapiens, UniProt Q8N4C8) — remaining activity: 46.5%.
The remaining activity was 105% (ROCK1 (Homo sapiens, UniProt Q13464)).
It gave 91.4% for remaining activity (CLK4 (Homo sapiens, UniProt Q9HAZ1)).
It gave 0.242% for remaining activity (DDR2 (Homo sapiens, UniProt Q16832)).
The remaining activity was 84.8% (Myosin-IIIb (MYO3B, Homo sapiens, UniProt Q8WXR4)).
The remaining activity was 94.1% (NEK3 (Homo sapiens, UniProt P51956)).
It gave 105% for remaining activity (PLK3 (Homo sapiens, UniProt Q9H4B4)).
For MET (Homo sapiens, UniProt P08581): remaining activity read 88.1%.
It gave 94.4% for remaining activity (TLK2 (Homo sapiens, UniProt Q86UE8)).

Further values, each from its own experiment
`PhoQ, residues 284 288 289 292 302 303 AMDMFI` has a fold induction of 0.621 (PhoP, residues 12 14 15 18 19 NQFFI (Escherichia coli, UniProt P23836); Sort-seq, item: YFP reporter; E. coli; PhoQ-PhoP variant library, added: 10 µM Mg2+; relative to: high Mg2+ state, higher = stronger signaling).

A few entries again (series 1):
`ATGAGTT`: “relative binding energy” 0.212 ln ratio.
